Measurements gathered from unrelated publications.
Parts stem from different laboratories: compare values within a part only. Substitutions count along the parent as printed.

Study 1
Target: Centromere-binding protein 1, full length, N-terminal tag (CBF1, Saccharomyces cerevisiae, UniProt P17106, residues 1-351)
UniProt P17106, sequence (whole entry, looked up): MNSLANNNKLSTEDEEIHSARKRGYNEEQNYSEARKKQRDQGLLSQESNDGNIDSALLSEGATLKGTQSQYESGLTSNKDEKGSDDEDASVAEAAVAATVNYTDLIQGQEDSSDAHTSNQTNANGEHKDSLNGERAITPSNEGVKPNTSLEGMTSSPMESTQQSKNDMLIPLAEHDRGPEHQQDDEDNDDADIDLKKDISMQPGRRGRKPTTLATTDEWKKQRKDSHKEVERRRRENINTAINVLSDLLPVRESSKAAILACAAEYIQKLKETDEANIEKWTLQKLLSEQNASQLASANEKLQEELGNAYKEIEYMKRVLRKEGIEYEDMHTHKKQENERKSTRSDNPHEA
Technique: protein-binding microarray
Form: double-stranded DNA, one strand shown
Medium: in vitro
Concentration: 0.8 µM
Setting: whole 60-bp probe, no competitor
Direction: higher = stronger binding
Strand	fluorescence intensity
CCTAACTACTATACTGATGCTATATAGCTTCGTACAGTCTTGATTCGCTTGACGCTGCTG	492 a.u.
CTAGAAAATGGACGTGACGAATCAATAAAAGAATTCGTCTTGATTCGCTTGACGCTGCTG	729 a.u.
GAACTATCTTTATCTCACCTGTTTGAGGGAAAGTAGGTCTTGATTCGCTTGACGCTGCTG	568 a.u.
CCTAACTACTATATAATCGTGGTATAGCTTCGTACAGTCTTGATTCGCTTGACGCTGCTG	519 a.u.
CTATAGCCACGATAAGGCGTGGTGCTGCTTCATTTCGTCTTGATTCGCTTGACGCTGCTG	499 a.u.
GAACGTTGGTGTGCCGACGTGATACAGAGCGGTTAGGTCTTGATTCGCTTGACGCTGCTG	586 a.u.
GAATATCTTAGATTTTACGTGATATGTTGGATATAGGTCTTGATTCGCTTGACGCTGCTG	559 a.u.

Study 2
Target: ABI1, truncated, D143A, DHFR fusion (Arabidopsis thaliana)
Technique: DHFR PCA, deep sequencing
Medium: yeast
Setting: methotrexate growth selection, single substitutions
Added: (+)-ABA 4.8 µM
Relative to: wild-type fitted maximum
Direction: higher = stronger binding
Starting sequence: PYL1, truncated, DHFR fusion (Arabidopsis thaliana); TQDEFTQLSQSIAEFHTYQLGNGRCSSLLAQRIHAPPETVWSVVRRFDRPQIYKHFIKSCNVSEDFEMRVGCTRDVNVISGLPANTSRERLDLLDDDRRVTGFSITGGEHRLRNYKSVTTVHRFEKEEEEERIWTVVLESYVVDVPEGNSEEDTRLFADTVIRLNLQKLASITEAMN; partner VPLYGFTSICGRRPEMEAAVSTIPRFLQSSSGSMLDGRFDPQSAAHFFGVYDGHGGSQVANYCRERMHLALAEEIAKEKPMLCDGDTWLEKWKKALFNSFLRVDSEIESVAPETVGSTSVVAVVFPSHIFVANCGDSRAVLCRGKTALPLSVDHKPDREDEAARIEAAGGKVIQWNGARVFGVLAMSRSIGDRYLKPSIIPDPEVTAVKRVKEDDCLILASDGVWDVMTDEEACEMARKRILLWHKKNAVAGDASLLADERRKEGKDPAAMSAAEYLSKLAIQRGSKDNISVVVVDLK
Substitution	relative binding score
Y53A	-9.86%
D144F	5.62%
Q167S	77.9%
R155W	-4.23%
E109M	27.8%
V142R	28.8%
Q2I	78.2%
L93H	40.7%

Study 3
Target: CCNA2, cyclin fold, Cln2 fusion (human)
Technique: yeast growth competition, sequencing
Medium: yeast
Setting: weak parent motif
Relative to: not given
Direction: higher = stronger binding
Starting sequence: MASTL docking peptide (human); PMIAKNLMCELDE
Substitution	normalised enrichment score
PMIAKNLMCELSE [D12S]	0.206
PMIAKNLICELDE [M8I]	-0.207
PMEAKNLMCELDE [I3E]	-0.385
PMQAKNLMCELDE [I3Q]	-0.177
PMIAKNLMCQLDE [E10Q]	0.234
PTIAKNLMCELDE [M2T]	-0.026
PMIAHNLMCELDE [K5H]	-0.468
PMIAMNLMCELDE [K5M]	-0.313
PWIAKNLMCELDE [M2W]	-0.294

Other studies, line by line
Substance	target	assay	test system	setting	how to read	measurement	value
PhoQ, residues 284 288 289 292 302 303 SCEHLI	PhoP, residues 12 14 15 18 19 LYFRQ (Escherichia coli, UniProt P23836)	Sort-seq, item: YFP reporter	E. coli	PhoQ-PhoP variant library, added: 10 µM Mg2+	relative to: high Mg2+ state, higher = stronger signaling	fold induction	20.9

Some of these lines once more (study 2):
Substitution	relative binding score
R155W	-4.23%
E109M	27.8%
